Assay results of several laboratories.
Protocols differ between the studies behind these lines. Numbers after ± are the reported error.
Oprm1: Mu-type opioid receptor (Oprm1, Rattus norvegicus, UniProt P33535)
Sequence of UniProt P33535 (whole entry, looked up): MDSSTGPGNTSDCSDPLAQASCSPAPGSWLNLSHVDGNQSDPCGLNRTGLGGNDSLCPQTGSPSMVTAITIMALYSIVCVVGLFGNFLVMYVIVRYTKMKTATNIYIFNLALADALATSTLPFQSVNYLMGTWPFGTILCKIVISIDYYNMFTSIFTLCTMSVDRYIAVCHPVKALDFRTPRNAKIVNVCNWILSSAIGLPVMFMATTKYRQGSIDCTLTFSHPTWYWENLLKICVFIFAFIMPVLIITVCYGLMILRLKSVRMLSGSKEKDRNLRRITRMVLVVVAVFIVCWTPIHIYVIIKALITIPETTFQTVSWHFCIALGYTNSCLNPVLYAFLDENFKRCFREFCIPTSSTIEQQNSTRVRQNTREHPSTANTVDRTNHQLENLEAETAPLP
Sequence of UniProt Q13237 (whole entry, looked up): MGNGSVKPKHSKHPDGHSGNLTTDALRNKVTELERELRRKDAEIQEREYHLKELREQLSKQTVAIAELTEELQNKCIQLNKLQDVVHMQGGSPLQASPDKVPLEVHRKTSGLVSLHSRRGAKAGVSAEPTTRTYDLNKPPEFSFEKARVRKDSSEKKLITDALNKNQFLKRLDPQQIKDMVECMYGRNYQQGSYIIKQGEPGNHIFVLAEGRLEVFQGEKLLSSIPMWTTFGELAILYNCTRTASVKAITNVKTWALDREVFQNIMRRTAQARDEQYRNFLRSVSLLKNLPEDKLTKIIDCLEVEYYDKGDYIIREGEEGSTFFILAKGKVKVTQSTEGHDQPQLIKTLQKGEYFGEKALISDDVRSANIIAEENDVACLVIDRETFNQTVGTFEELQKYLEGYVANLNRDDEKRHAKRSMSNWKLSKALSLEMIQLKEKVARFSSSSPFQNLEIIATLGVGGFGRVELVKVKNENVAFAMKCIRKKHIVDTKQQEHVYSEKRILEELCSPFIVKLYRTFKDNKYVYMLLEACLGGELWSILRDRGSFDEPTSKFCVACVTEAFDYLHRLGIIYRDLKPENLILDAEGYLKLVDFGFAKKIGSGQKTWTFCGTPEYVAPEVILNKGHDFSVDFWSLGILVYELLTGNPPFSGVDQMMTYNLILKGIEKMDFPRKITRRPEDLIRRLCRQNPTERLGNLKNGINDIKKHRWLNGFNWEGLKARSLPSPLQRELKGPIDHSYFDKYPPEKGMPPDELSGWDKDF
Sequence of UniProt P21802 (whole entry, looked up): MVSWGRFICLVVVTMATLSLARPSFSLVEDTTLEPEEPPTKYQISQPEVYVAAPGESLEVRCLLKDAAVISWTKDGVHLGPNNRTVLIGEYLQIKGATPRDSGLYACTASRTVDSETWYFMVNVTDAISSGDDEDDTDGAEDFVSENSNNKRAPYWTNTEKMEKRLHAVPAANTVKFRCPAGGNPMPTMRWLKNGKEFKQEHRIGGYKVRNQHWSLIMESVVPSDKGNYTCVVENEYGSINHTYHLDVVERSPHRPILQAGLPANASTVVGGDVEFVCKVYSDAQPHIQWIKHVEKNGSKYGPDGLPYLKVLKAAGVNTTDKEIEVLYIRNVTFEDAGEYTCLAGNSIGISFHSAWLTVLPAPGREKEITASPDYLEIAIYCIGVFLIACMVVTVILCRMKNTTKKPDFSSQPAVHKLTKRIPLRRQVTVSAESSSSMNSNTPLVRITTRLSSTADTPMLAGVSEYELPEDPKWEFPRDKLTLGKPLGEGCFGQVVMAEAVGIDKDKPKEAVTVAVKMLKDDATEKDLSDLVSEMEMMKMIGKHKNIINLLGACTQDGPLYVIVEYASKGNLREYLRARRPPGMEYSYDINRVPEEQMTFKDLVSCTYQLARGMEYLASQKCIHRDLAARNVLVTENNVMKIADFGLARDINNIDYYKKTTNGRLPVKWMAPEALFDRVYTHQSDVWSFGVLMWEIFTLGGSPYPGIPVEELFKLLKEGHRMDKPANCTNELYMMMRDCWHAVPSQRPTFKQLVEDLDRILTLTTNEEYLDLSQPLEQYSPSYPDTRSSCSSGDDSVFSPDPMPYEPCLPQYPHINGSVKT
Sequence of UniProt P41595 (whole entry, looked up): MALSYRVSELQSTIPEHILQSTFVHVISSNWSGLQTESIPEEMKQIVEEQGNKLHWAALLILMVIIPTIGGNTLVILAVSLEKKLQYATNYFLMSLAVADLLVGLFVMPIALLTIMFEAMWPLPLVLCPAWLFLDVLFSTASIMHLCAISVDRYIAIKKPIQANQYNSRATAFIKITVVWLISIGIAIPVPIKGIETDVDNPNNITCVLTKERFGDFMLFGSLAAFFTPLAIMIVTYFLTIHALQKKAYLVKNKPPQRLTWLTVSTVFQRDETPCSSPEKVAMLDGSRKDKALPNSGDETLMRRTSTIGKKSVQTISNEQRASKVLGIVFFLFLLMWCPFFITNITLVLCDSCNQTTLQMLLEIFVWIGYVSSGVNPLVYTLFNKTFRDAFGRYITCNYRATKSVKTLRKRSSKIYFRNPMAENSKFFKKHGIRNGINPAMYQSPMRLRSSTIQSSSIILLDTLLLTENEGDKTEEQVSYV

CC[C@@H](C)[C@@H]1CN([C@@H](CC2CCCCC2)CN2CCC[C@H]2CN2CCNC[C@@H]2Cc2ccc3ccccc3c2)CCN1CCc1ccc(Cl)c(Cl)c1  remaining binding (Oprm1; radioligand binding; rat brain membranes; 500 nM, pH 7.5, 25 °C, added: 0.87 nM [3H]DAMGO): 107 ± 6.13%
COc1cc(Nc2nc(C)cc(-c3cnn4nc(OC)ccc34)n2)cc(C(F)(F)F)c1  remaining binding (CDPK1 (Plasmodium falciparum, UniProt P62344); KINOMEscan binding; 1000 nM; reference: control): 74%
O=C(N[C@@H]1c2ccccc2C[C@H]1N1CCCC1)c1ccc(-c2ccnc3[nH]ccc23)nc1  remaining binding (PRKG2 (Homo sapiens, UniProt Q13237); binding, competition with immobilised ligand; 3 µM): 9.5%
CCc1nnc(-c2c(OC)cc(-c3cnc4cc(-c5cnn(C)c5)ccn34)cc2OC)o1  remaining binding (HTR2B (Homo sapiens, UniProt P41595); agonist radioligand, radioligand binding; 10 µM, SafetyScreen44 5-HT2B replicate 2; lower = stronger displacement): 92.2%
OC[C@H]1CNCCN1C[C@@H]1CCCN1C[C@@H](Cc1ccc2ccccc2c1)N1CCN(CCc2ccc(Cl)c(Cl)c2)[C@H](Cc2ccc(O)cc2)C1  remaining binding (Oprm1; radioligand binding; rat brain membranes; 500 nM, pH 7.5, 25 °C, added: 0.87 nM [3H]DAMGO): 110 ± 8.69%
COc1ccccc1-c1n[nH]c2nc(NC3CCN(C(=O)Cc4ccc(F)cc4F)CC3)ncc12  remaining binding (cyclin 3 (Leishmania donovani, UniProt A0A3Q8IHJ8); competition bead pull-down, measured: LINJ.30.0080; Leishmania donovani extract; 10 µM; reference: vehicle): 13%
OC[C@H]1CNCCN1C[C@@H]1CCCN1C[C@H](CC1CCCCC1)N1CCN(CCCC2CCCC2)[C@H](Cc2ccc(O)cc2)C1  remaining binding (Oprm1; radioligand binding; rat brain membranes; 500 nM, pH 7.5, 25 °C, added: 0.87 nM [3H]DAMGO): 108 ± 8.06%
CCOC(=O)[C@@H]1Cc2c(cc([N+](=O)[O-])cc2[N+](=O)[O-])[C@H](O)[C@]12C(=O)Nc1ccc(Br)cc12  remaining binding (FGFR2 (Homo sapiens, UniProt P21802); binding, competition with immobilised ligand; 0.1 µM): 51%
COc1ccccc1-c1n[nH]c2nc(N[C@H]3CC[C@H](NS(=O)(=O)CC(C)C)CC3)ncc12  remaining binding (cdc2-related kinase 12 (Leishmania donovani, UniProt A0A3S7WQK2); Kinobeads competition; Leishmania donovani extract; 10 µM; reference: vehicle): 4.73%

A few entries again:
COc1ccccc1-c1n[nH]c2nc(N[C@H]3CC[C@H](NS(=O)(=O)CC(C)C)CC3)ncc12  remaining binding (cdc2-related kinase 12 (Leishmania donovani, UniProt A0A3S7WQK2); Kinobeads competition; Leishmania donovani extract; 10 µM; reference: vehicle): 4.73%
